Assay results from different studies.
Lines come from different studies, so protocols differ. ± marks the error that the study gave.
Cell line: Vero

| Structure (SMILES) | observed | method | tested at | time | notes | endpoint | value |
| --- | --- | --- | --- | --- | --- | --- | --- |
| CC(=O)OC[C@H]1O[C@@H](Sc2sc(C(=O)c3ccc(Br)cc3)c(N)c2-c2nc3ccccc3s2)[C@H](OC(C)=O)[C@@H](OC(C)=O)[C@@H]1OC(C)=O | cytotoxicity |  |  | 72 h |  | maximum non-toxic concentration | 100 µg/mL |
| Cc1ncc([N+](=O)[O-])n1CCOCc1nnc(SCC(=O)c2ccc(F)cc2)o1 | cell growth or viability | MTT | 6 µM | 48 h |  | viability | 102% |
| CC(=O)OC[C@H]1O[C@@H](Sc2sc(C(=O)c3ccc(C)cc3)c(N)c2-c2nc3ccccc3s2)[C@H](OC(C)=O)[C@@H](OC(C)=O)[C@@H]1OC(C)=O | cytotoxicity |  |  | 72 h |  | maximum non-toxic concentration | 90 µg/mL |
| O=c1c(-c2nc3ccccc3s2)cc2c(n1NS(=O)(=O)c1ccc(Cl)cc1)CCCCCC2 |  | trypan blue |  | 72 h |  | maximum non-toxic concentration | 130 µg/mL |
| CC(=O)O[C@@H]1[C@@H](OC(C)=O)[C@H](Sc2sc(C(=O)c3ccc(Cl)cc3)c(N)c2-c2nc3ccccc3s2)OC[C@H]1OC(C)=O | cytotoxicity |  |  | 72 h |  | maximum non-toxic concentration | 80 µg/mL |
| Cc1ccc(S(=O)(=O)Nn2c3c(cc(-c4nc5ccccc5s4)c2=O)CCCCCC3)cc1 |  | trypan blue |  | 72 h |  | maximum non-toxic concentration | 130 µg/mL |
| O=C(C=CC(Cc1ccccc1)Nc1ccnc2cc(Cl)ccc12)NCC(=O)NCc1ccccc1 (stereo not drawn) |  | MTT | concentration not given |  |  | cytotoxicity | not toxic |
| Cc1ccc(S(=O)(=O)Nn2c3c(cc(-c4nc5ccccc5s4)c2=O)CCCC3)cc1 |  | trypan blue |  | 72 h |  | maximum non-toxic concentration | 130 µg/mL |
| CC(=O)OCC1OC(n2cc(C)c(=O)[nH]c2=O)C2CC=CCC12 (mixture of isomers) | cytotoxicity |  |  | 3 days |  | IC50 | > 100 µM |
| COc1cc(C2COc3cc(O)cc(O)c3C2=NN)c(OC)cc1O (stereo not drawn) | cytotoxicity | MTT |  | 72 h | 10% fetal bovine serum | IC50 | 134 ± 1.56 µM |
| Clc1ccc2c(NCCCN3CCN(c4ccnc(N5CCCC5)n4)CC3)ccnc2c1 | cytotoxicity | neutral red uptake |  | 48 h |  | IC50 | > 4.76 µg/mL |
| Cc1ncc([N+](=O)[O-])n1CCOCc1nnc(SCC(=O)c2ccc(Cl)cc2)o1 | cell growth or viability | MTT | 6 µM | 48 h |  | viability | 98.4% |
| Cc1ncc(COP(=O)(O)O)c(C=NNC(=N)NO)c1O |  | cell morphology | 100 µM |  |  | cytotoxicity | not toxic |
| CC(=O)OCC1OC(n2ccc(=O)[nH]c2=O)C2CC=CCC12 (mixture of isomers) | cytotoxicity |  |  | 3 days |  | IC50 | > 100 µM |
| Cc1ccc(O)c(C=NNC(=N)NO)n1 |  | cell morphology | up to 150 µM |  |  | cytotoxicity | not toxic |
| Cc1cc([N+](=O)[O-])ccc1NC(=O)CSc1nc2ccccc2c(=O)n1-c1ccc(S(N)(=O)=O)cc1 | cytotoxicity | MTT |  |  | 2% serum | IC50 | 927 µg/mL |
| CC(=O)O[C@@H]1[C@@H](OC(C)=O)[C@H](Sc2sc(C(=O)c3ccc(Br)cc3)c(N)c2-c2nc3ccccc3s2)OC[C@@H]1OC(C)=O | cytotoxicity |  |  | 72 h |  | maximum non-toxic concentration | 100 µg/mL |
| CN[C@@H]1[C@H](O)[C@H](NC)[C@H]2O[C@]3(O)[C@H](O[C@@H]2[C@H]1O)O[C@H](C)C[C@@]3(O)CNCc1ccc(F)cc1 |  |  |  |  |  | IC50 | > 100 µg/mL |
| Nc1ncnc2c1ncn2C1OC(CO)C2CC=CCC21 (mixture of isomers) | cytotoxicity |  |  | 3 days |  | IC50 | > 100 µM |
| CN[C@@H]1[C@H](O)[C@H](NC)[C@H]2O[C@]3(O)[C@H](O[C@@H]2[C@H]1O)O[C@H](C)C[C@@]3(O)CNCc1ccc(OC(F)(F)F)cc1 | cytotoxicity | CellTiter-Glo |  | 72 h |  | IC50 | > 100 µg/mL |
| CC(=O)Nc1ccn(C2OC(COC(C)=O)C3CC=CCC32)c(=O)n1 (mixture of isomers) | cytotoxicity |  |  | 3 days |  | IC50 | > 100 µM |
| CN[C@@H]1[C@H](O)[C@H](NC)[C@H]2O[C@]3(O)[C@H](O[C@@H]2[C@H]1O)O[C@H](C)C[C@@]3(O)CNCc1ccccc1 |  |  |  |  |  | IC50 | > 100 µg/mL |
| O=c1c(O)c(SCc2ccccc2)ccc(SCc2ccccc2)c1O |  | MTS | up to 100 µM |  |  | cytotoxicity | not toxic |
| Cc1ccc(C(=O)c2sc(S)c(-c3nc4ccccc4s3)c2N)cc1 | cytotoxicity |  |  | 72 h |  | maximum non-toxic concentration | 90 µg/mL |
| Cc1ncc([N+](=O)[O-])n1CCOCc1nnc(SCC(=O)c2ccc(O)cc2)o1 | cell growth or viability | MTT | 6 µM | 48 h |  | viability | 106% |
| CC(=O)OC[C@H]1O[C@@H](Sc2sc(C(=O)c3ccc(Cl)cc3)c(N)c2-c2nc3ccccc3s2)[C@H](OC(C)=O)[C@@H](OC(C)=O)[C@@H]1OC(C)=O | cytotoxicity |  |  | 72 h |  | maximum non-toxic concentration | 80 µg/mL |
| COc1cc(OC)c2c(c1)OCC(c1cc(OC)c(OC)cc1OC)C2=NO (stereo not drawn) | cytotoxicity | MTT |  | 72 h | 10% fetal bovine serum | IC50 | 159 ± 8.29 µM |

Excerpt of the above:
| Structure (SMILES) | observed | method | tested at | time | notes | endpoint | value |
| --- | --- | --- | --- | --- | --- | --- | --- |
| CC(=O)OC[C@H]1O[C@@H](Sc2sc(C(=O)c3ccc(Cl)cc3)c(N)c2-c2nc3ccccc3s2)[C@H](OC(C)=O)[C@@H](OC(C)=O)[C@@H]1OC(C)=O | cytotoxicity |  |  | 72 h |  | maximum non-toxic concentration | 80 µg/mL |
| COc1cc(C2COc3cc(O)cc(O)c3C2=NN)c(OC)cc1O (stereo not drawn) | cytotoxicity | MTT |  | 72 h | 10% fetal bovine serum | IC50 | 134 ± 1.56 µM |
| Cc1ccc(S(=O)(=O)Nn2c3c(cc(-c4nc5ccccc5s4)c2=O)CCCCCC3)cc1 |  | trypan blue |  | 72 h |  | maximum non-toxic concentration | 130 µg/mL |
